Published values collected from several papers.
Every numbered part comes from another study and shows a few of its results, in no order. Substitutions count along the parent as printed.

Sample 1
Target: RNA binding protein fox-1 homolog 2, RRM domain, GST-SBP tag (RBFOX2, Homo sapiens, UniProt O43251-10, residues 100-194)
Method: RNA Bind-n-Seq
Form: RNA
Sample: in vitro
Tested at: 365 nM
Setting: natural RNA segment, single round, ends assumed
Reference: no-protein control
Reading: higher = stronger binding
Constant ends, left off below: GGGAGUUCUACAGUCCGACGAUC … UGGAAUUCUCGGGUGCCAA
Residues (chain): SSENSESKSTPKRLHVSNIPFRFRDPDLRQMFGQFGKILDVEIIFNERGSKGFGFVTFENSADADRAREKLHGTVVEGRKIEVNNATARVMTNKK
Sequence	RBNS enrichment (R)
AUCAAACACUGAAUCUUUUAUGUGAGCAGCUUAAGAAAAUAAAAGGAAAAGCCUUGCACUAGCACUCAGAGGGCUGCCCUGUGUGGAUACUGUCAUCUUGCAAUGGUUUA	0.667
AACCUGUGUUUGUAUUGGAGAUGUGUCUACUAUUGGGGGAAGAGGUUCUCGUAAUCGCUCGGUGGGAAAUCAUGGCUCUGCCGUCCUGCCUCUCUGUGGCCGUGGGUUCA	0.326
AACAGAGAUAUAUUUUGUACAAAAUGAACUGUUAAGUUGCCUUUGGCUAACAUCCAUAUGUAUAUAUCUUAUUUAUAAAUAAAAAUUGUAAAUGUCAGUUUCGGUAUCCC	0.581
ACACACACACACGGUGUUUCUAGAGAUCCAGUUGAGGACAUCUAGCAAGGGGAGUGACUGCCUCCCUUGGGCCAAGUUCCCCAGCCUCAGCCUGCACAUCUCUCUCUUUG	0.453
AGGCCCAGAGUGGACACAGCUGUUAAUUUCCACUGGCUAUGCCACUUCAGAGUCUUUCAUGCCAGCGUUUGAGCUCCUCUGGGUAAAAUCUUCCCUUUGUUGACUGGCCU	0.35
AACGCCCUAAGCACUUCCUGGAACUGAAGAGCUUUAAGGACAACUAUAACACACUGGAGAGCACUCUGUGAUGGGGCUGCACACGUGCAGCCGUGCAGCACUCGGGAUGU	0.576
AAUGCGUCAAAAAAUGUGCAGAAAAUGUAUUGCAUCCCUUGAUACUGUCUAACGAAUAGCACAUAACUCAUAUUGUGAAUCCUAUGGGUCUUGAGGCCUGUAGAACCAAU	0.784
CAACGCCAAGAUCAUGAUUCGGGGGAAAGGAUCAGUGAAAGAAGGGAAAGUUGGGCGUAAAGAUGGUCAGAUGUUGCCAGGCGAAGAUGAGCCUCUUCAUGCUCUAGUCA	1.17
GCCGGGCGCGGUGGCUCACGCCUGCAAUCCCAACACAUUGGGGGGUCGAGGCGGACGGAUCACUUUGAGCCCAGGAGUUCAAGACCAGCCUGGGCAACAUGGCGAAACCU	0.249
UGUUCCUCCCCUGGCCAGUUAGGGAUGGGAUGUUCUGUGUCUUGUGUGUCCCUCUCCCUAGUCUAAAAAGCAAUUGAAAAGGUCUAUGCAAUAAAGGUUGUUGCUUCCCU	1.33
UUGCUCUGUGUCUGACCCAAUAUUGUUGAAAAAUGAAAUAAAGCAUUAUGCAAAAGGUGUUACAUCUAAUGUGGCUACAGUCUGAGUUUCUUUUCUCUCUAGUUACUGCC	0.509
AGCACAAACACUGAAAUGUCUACGUUUCAUUUUGGCAGUAGGGUGUGAAGCUGGGAGCAGAUCAUGUAUUUCCCGGAGACGUGGGACCUUGCUGGCAUGUCUCCUUCACA	1.56

Sample 2
Target: Sal-like protein 4, full length isoform B (SALL4, Homo sapiens, UniProt Q9UJQ4-2, residues 1-616)
Method: universal PBM
Form: double-stranded DNA, one strand shown
Sample: in vitro
Tested at: not given
Setting: 8-mer, flanks averaged, mean of replicates
Reading: higher = stronger binding
Residues (chain): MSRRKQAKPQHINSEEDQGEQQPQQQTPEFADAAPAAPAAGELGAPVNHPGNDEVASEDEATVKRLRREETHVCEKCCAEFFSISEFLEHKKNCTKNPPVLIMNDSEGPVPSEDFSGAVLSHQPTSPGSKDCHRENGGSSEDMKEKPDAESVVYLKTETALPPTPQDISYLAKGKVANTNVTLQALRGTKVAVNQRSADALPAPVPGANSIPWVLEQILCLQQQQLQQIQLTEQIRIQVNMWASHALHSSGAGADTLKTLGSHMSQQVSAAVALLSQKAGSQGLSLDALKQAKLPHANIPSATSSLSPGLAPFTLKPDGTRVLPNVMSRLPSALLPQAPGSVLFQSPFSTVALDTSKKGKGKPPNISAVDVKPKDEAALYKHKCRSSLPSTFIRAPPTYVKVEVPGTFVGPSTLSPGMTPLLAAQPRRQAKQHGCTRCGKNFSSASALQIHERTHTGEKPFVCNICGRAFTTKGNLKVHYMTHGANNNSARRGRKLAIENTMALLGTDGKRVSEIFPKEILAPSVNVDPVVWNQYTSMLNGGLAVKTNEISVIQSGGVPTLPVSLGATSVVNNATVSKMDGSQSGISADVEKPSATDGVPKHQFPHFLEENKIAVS
Sequence	E-score
ATCTTTAC	0.211
CACCTATA	0.213
CCCACGGA	-0.187
ACCCCCTA	-0.084
CGTAGGAA	-0.08
CACCTGGA	-0.12
CCACGCTC	-0.379
CCTACGAG	-0.183
TGGATCCA	0.151
ATTGGAGC	0.0407
ACCGTCCC	-0.0555
GTAAAGAC	0.0541
CTGATACA	0.0716
AACCGTAG	-0.191
CCCTTCCG	-0.228
AACGGGAT	-0.15
GCTAATCC	-0.0161
GACCGTCC	-0.302
GCGAGACA	-0.301
AGTAATCA	0.0675
AAGTCTTG	-0.00087

Sample 3
Target: RING finger protein unkempt homolog, zinc fingers 1-6, GST-SBP tag (UNK, Homo sapiens, UniProt Q9C0B0, residues 30-357)
Method: RNA Bind-n-Seq
Form: RNA
Sample: in vitro
Tested at: not given
Setting: RNA with constant flanks, human-mouse chimeric sites, ends assumed
Reference: input RNA pool
Reading: higher = stronger binding
Constant ends, left off below: GGGAGUUCUACAGUCCGACGAUC … CAACAGAGGAUUGAGCAUCA
Target sequence (chain): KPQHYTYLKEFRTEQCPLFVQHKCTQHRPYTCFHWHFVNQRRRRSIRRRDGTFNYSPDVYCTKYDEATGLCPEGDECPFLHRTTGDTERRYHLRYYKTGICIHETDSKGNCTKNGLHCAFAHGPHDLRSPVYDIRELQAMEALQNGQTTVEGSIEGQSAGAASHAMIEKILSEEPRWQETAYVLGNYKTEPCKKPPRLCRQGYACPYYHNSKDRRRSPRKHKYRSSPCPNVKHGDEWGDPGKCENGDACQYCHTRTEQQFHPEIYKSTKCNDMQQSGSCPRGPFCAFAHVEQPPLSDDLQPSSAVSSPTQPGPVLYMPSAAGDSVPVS
Sequence	bound/input enrichment [ratio]
GUGCCCUUCUCGCUGCUGCGGAGCCCGAGCUGGGAACCAUUCCGGGACUGGUACCCUCCGCAUAGCCGCCUCUUCGAUCAAGCUUUCGGGGUGCCCCGGUUGCCCGAGGAGUGGUCGCAG	0.0464
ACACAAUAUGAGACCAACAGCUUGGACUUCAAAGUUGGGGCAGAUGGGACAGUCUUCGCCACCCGGGAGCUGCAGGUCCCCUCCGAGCAGGUGGCGUUCACGGUGACUGCAUGGGACAGC	0.202
GCCACCAGAUCCCAGAAACAUGACCCUUGCUGCCUACAAAGAGAAGAUGAAGGAGCUCCCACUAGUGUCCUUGUUCUGCUCCUGCUUCCUGGCCGAUCCCCUGAAUAAGUCGUCCUACAA	0.96
GAGUCGAGCAAACUUGAAACAAUUCGUUAUCUUGCAGCCUCAGUGUUCACUUGCUUGUGGCAAUAGCUGGGGUUUUAUAGGUUCUGGGGAAGUAGUAGACGAUGAUGCUGCCGCUGCUGC	0.734
CUGGCCUGGCCCUCCCCAGGGGCCUCCUUUCGUAUAGUCACUGCUUCUGCAUCAGAUACUUUCAGCUCCAAGUCCUGGCAGGGUGGGGCACCCAUUUCAGGCAGAAGGUUUUGGUACCCU	0.277
UUCAAAGAAAAGGGCAGCUGUGUCAUUUCAUAAGUAACUCUGGGGGAGGGAAAUUCUGUUCUUUUGUUUAAUUUUCCCCCAGAUAAAACCAACAUGCGUGUUGAAGAACUGAGAAAAAAU	0.239
UUACCCGAGAACGAGGAUGAGCUGGAGAGCACCAACAGGCGCUACACCAAGAGGGACUGCAGCACUUUUCUCAGAACUAGUGAGACGGGCAUCGUGGACCAGGUCAUGGUCACUCUCAAC	0.169
UUAAUCCCCUUUACUGCUCCCCCACUUCUCAUGGUAAUAACAAAGUCUUAUAUCCCCGUCCUAGCUUUUACUCAGAUGGCUUAUGGAGCCGGUUUCCUAGCUUUCUUGGGAGGGAUCAGA	0.671
GACCCACAGUGGUCUGAGGAGCAACUCAUUGCUGCAAAAUUCUGUUUUGCUGGCCUUGUUAUAGGGCAGACUGAAGUGGACAUCAUGAGUCAUGCCACACAGGCUAUUUUUGAAAUUCUG	0.158
UUCAAAGAAAAGGGCAGCUGUGUCAUUACUUGGGAGACUCUGGGGGAGGGAAAUUCUAACUAGUUUGUUAAUUUUCCCCCAAAUGAAGCCAAAGUGUGUGUUGAAGAACUGAGAAAAAAU	1.05
AAUUUCCUGUCAUACUUUUUAGACAUUCACAUCAGACUUACAGAGCACCUGGCCACAUUCUAGGUUUGUGUUAUUUCUCAGCUAUGGGGGUAUGAUUAUGAGAACACUGGCAGCCAGAUG	1.4

Sample 4
Target: CCNF, cyclin fold, Cln2 fusion (human)
Method: yeast growth competition, sequencing
Sample: yeast
Setting: strong parent motif
Reference: not given
Reading: higher = stronger binding
Parent: BRCA2 docking peptide (human); PSIKRNLLNEFDR; partner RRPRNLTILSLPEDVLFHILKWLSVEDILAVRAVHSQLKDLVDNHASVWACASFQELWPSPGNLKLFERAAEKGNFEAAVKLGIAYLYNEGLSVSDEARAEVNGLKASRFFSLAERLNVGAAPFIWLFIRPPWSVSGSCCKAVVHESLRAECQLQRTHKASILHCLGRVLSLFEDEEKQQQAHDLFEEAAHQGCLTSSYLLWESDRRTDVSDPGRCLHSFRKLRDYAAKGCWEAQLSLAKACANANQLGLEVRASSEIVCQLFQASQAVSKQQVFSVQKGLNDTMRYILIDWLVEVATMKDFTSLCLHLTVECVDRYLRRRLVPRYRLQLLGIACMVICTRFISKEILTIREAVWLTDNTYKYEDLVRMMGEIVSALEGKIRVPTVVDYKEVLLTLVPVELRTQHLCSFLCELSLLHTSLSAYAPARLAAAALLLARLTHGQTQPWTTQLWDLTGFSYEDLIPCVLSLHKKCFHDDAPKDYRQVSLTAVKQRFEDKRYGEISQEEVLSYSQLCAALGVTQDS
Variant	normalised enrichment score
I3A	4.05
R13N	3.28
R5I	0.206
K4G	0.513
N9Y	4.3
L8I	2.23
L7M	1.61
D12L	2.25
R5L	-0.747
S2P	2.73
R5E	-0.597
P1T	2.81
D12W	3.02
S2D	2.53

Sample 5
Target: Interferon regulatory factor 7, full length, phosphomimetic (IRF7, Homo sapiens, UniProt Q92985, residues 1-503, S471D/S472D/S475D/S476D/S477D/S483D/S484D/S487D)
Chain of UniProt Q92985 (whole entry, unmodified, looked up): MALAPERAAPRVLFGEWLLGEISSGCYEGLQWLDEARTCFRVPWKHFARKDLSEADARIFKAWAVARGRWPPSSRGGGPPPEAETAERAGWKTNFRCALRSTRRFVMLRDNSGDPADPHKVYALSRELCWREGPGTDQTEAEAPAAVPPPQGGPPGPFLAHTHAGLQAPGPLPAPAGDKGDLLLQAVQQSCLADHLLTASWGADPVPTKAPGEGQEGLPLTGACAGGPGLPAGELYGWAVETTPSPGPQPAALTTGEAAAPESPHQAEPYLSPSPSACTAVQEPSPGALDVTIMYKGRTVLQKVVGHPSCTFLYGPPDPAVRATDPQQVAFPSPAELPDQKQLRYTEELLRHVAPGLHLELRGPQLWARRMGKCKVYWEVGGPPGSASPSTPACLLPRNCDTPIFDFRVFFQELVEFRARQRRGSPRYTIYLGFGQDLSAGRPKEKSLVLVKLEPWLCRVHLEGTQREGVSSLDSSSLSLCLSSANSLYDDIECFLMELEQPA
Method: protein-binding microarray
Form: double-stranded DNA, one strand shown
Sample: in vitro
Tested at: 2200 nM top
Setting: 60-bp whole probe
With: salmon DNA 0.4 mg/ml
Reference: random background probes
Reading: higher = stronger binding
Constant ends, left off below: GCCTAGCAC … GTCTTGATTCGCTTGACGCTGCTG
Sequence	fitted relative affinity
TTAGGTTTCCTTATCCTTTCGTGCTAG	2.41 z-score
TTAGAACTGGGGACTGGATTTGTGCTA	-0.17 z-score
GACGGTCTCCCTATCCTGACGTGCTAG	0.907 z-score
CCAGTGCTGCTTTGTCAAGAGTGCTAG	-0.246 z-score
CAGGAATGGCACCAGCAGGGGTGCTAG	-1.02 z-score
TTAGGTTTCGACTTACGGTTAGTGCTA	8.24 z-score
GACGGTTTCCTTTCCCCGACGTGCTAG	5.01 z-score
TCAAGTCCCGAGAATGGTACTGTGCTA	-0.219 z-score
TTAGAAATTTCTTTCTAATTGTGCTAG	0.696 z-score
GACGGACTTGGTTTCGGGACGTGCTAG	2.72 z-score
GACGATCTCCTTCTCCTGACGTGCTAG	1.17 z-score
TTTTTGTTGTTTTTTGGTTTGTGCTAG	3.36 z-score
TCATTTTTTTTTCTACTACTGTGCTAG	2.21 z-score
GACGAACTGAGTTTCGACACGTGCTAG	1.72 z-score

For quick reference, copied from above (sample 5):
Sequence	fitted relative affinity
TTAGAACTGGGGACTGGATTTGTGCTA	-0.17 z-score
GACGGTCTCCCTATCCTGACGTGCTAG	0.907 z-score
CCAGTGCTGCTTTGTCAAGAGTGCTAG	-0.246 z-score
CAGGAATGGCACCAGCAGGGGTGCTAG	-1.02 z-score
TTAGGTTTCGACTTACGGTTAGTGCTA	8.24 z-score
GACGGTTTCCTTTCCCCGACGTGCTAG	5.01 z-score
TCAAGTCCCGAGAATGGTACTGTGCTA	-0.219 z-score
TTAGAAATTTCTTTCTAATTGTGCTAG	0.696 z-score
GACGGACTTGGTTTCGGGACGTGCTAG	2.72 z-score
GACGATCTCCTTCTCCTGACGTGCTAG	1.17 z-score
TTTTTGTTGTTTTTTGGTTTGTGCTAG	3.36 z-score
TCATTTTTTTTTCTACTACTGTGCTAG	2.21 z-score
